Measured values from different studies.
“And” joins repeats or separate records; there may be more than shown. Numbers after ± are the reported error.

With `C#Cc1c(F)ccc2cc(O)cc(-c3ncc4c(N5CC6CCC(C5)N6C(=O)OC(C)OC(=O)C(CC)CCCC)nc(OC[C@@]56CCCN5C[C@H](F)C6)nc4c3F)c12` (some centres unmarked) the compound remaining was 100% (chemical stability; simulated intestinal fluid; 1 µM, 30 min).
`CCCC[C@H]1C(=O)N(C)[C@@H](CCCC)C(=O)N[C@@H](CCCNC(=O)CN2CCN(CC(=O)O)CCN(CC(=O)O)CCN(CC(=O)O)CC2)C(=O)N[C@H](C(=O)NCC(N)=O)CSCC(=O)N[C@@H](Cc2ccc(O)cc2)C(=O)N(C)[C@@H](C)C(=O)N[C@@H](CC(N)=O)C(=O)N2CCC[C@H]2C(=O)N[C@@H](Cc2c[nH]cn2)C(=O)N[C@@H](CC(C)C)C(=O)N(C)CC(=O)N[C@@H](Cc2c[nH]c3ccccc23)C(=O)N[C@@H](CO)C(=O)N[C@@H](Cc2c[nH]c3ccccc23)C(=O)N1C` [gallium-68 labelled] gave a tissue uptake of 4.96 ± 1.31 %ID/g (NOD/SCID mice with CHO-hPD-L1 xenograft, bone; 60 min post injection).
With `CC(=O)N[C@H](C(=O)N[C@@H](CCCC(=O)OC(C)(C)C)C(=O)N[C@@H](CCC1CCCCC1)C(=O)N[C@@H](CC(=O)O)C(=O)COC(=O)c1c(C)cccc1C)C(C)(C)C` the blood concentration was 26.2 µM and 35.4 µM and 40.9 µM (C57BL/6N mouse, female, whole blood; intraperitoneal, dose not given, 24 h).
For `CC(C)[C@@H]1NC(=O)CNC(=O)[C@H](CC(N)=O)NC(=O)[C@H](CCCNC(=N)N)NC(=O)[C@H](Cc2ccc(O)cc2)NC(=O)[C@H](C(C)C)NC(=O)[C@@H](NC(=O)[C@@H](NC(=O)[C@H](CC(N)=O)NC(=O)[C@H](Cc2c[nH]c3ccccc23)NC(=O)[C@H](C)NC(=O)[C@H](Cc2ccccc2)NC(=O)CNC(=O)[C@H](CCCCN)NC(=O)[C@H](Cc2ccccc2)NC(=O)[C@H](Cc2ccccc2)NC(=O)[C@H](CCCCN)NC(=O)OCC2c3ccccc3-c3ccccc32)C(C)C)CSSC[C@@H](C(=O)N[C@@H](Cc2c[nH]cn2)C(=O)N[C@@H](CCCNC(=N)N)C(=O)N[C@@H](CCCNC(=N)N)C(=O)N[C@@H](C)C(=O)N[C@@H](CC(N)=O)C(N)=O)NC(=O)[C@H](C(C)C)NC(=O)[C@H](CCCNC(=N)N)NC1=O`, the phosphorus was 3.28 ± 0.19 mmol/L (ICR mice, serum; intraductal mammary, 10 mg/kg, day 5).
Under “serum enzyme activity”, `CCCCCCCCCCCCCCCC(=O)N[C@@H](CCC(=O)NCCOCCOCCC(=O)NCCOCCOCCC(=O)NCCCC[C@H](NC(=O)[C@H](CC(=O)O)NC(=O)[C@H](CC(C)C)NC(=O)[C@H](Cc1ccc(O)cc1)NC(=O)[C@H](CCCCN)NC(=O)[C@H](CO)NC(=O)[C@H](Cc1ccc(O)cc1)NC(=O)[C@H](CC(=O)O)NC(=O)[C@H](CO)NC(=O)[C@@H](NC(=O)[C@H](Cc1ccccc1)NC(=O)[C@@H](NC(=O)CNC(=O)[C@H](CCC(N)=O)NC(=O)[C@@H](CO)NC(=O)[C@@H](N)Cc1c[nH]cn1)[C@@H](C)O)[C@@H](C)O)C(=O)N[C@@H](CCCNC(=N)N)C(=O)N[C@@H](CCCNC(=N)N)C(=O)N[C@@H](C)C(=O)N[C@@H](CCC(N)=O)C(=O)N[C@@H](CC(=O)O)C(=O)N[C@@H](Cc1ccccc1)C(=O)N[C@H](C(=O)N[C@@H](CCC(N)=O)C(=O)N[C@@H](Cc1c[nH]c2ccccc12)C(=O)N[C@@H](CC(C)C)C(=O)N[C@@H](CC(C)C)C(=O)N[C@@H](CC(N)=O)C(=O)N[C@H](C(=O)NCC(=O)NCC(=O)N1CCC[C@H]1C(=O)N[C@@H](CO)C(=O)N[C@@H](CO)C(=O)NCC(=O)N[C@@H](C)C(=O)N1CCC[C@H]1C(=O)N1CCC[C@H]1C(=O)N1CCC[C@H]1C(=O)N[C@@H](CO)C(N)=O)[C@@H](C)O)C(C)C)C(=O)O` is recorded as 26.6 ± 3.7 U/L (refers to: ALT; Sprague-Dawley rat, female; subcutaneous, 100 µg/kg once daily, 14 days).
The MCH of `CSCC[C@H](NC(=O)[C@@H](NC(=O)[C@H](CC(C)C)NC(=O)[C@@H](NC(=O)[C@H](Cc1c[nH]cn1)NC(=O)CCCCCNC(=O)[C@H](CCCNC(=N)N)NC(=O)[C@H](CCCNC(=N)N)NC(=O)[C@H](CCCNC(=N)N)NC(=O)[C@H](CCC(N)=O)NC(=O)[C@H](CCCNC(=N)N)NC(=O)[C@H](CCCNC(=N)N)NC(=O)[C@H](CCCCN)NC(=O)[C@H](CCCCN)NC(=O)[C@H](CCCNC(=N)N)NC(=O)CNC(=O)[C@@H](N)Cc1ccc(O)cc1)C(C)C)C(C)C)C(=O)N[C@@H](CS)C(=O)N[C@@H](C)C(=O)N[C@H](C(N)=O)[C@@H](C)O` is reported as 14.2 pg and 14.8 pg and 13.8 pg (C57BL/6J mice; Alzet osmotic pump, 3 mg/kg, 8 weeks).
`O=C1NC2(CC2)COc2ncc(F)cc2[C@H]2COCCN2c2ccn3ncc1c3n2` has a creatinine of 30 ± 4.3 µmol/L (Sprague-Dawley rat, male, serum; oral, 20 mg/kg/day, 4 weeks daily, end of treatment).
`C=C/C=C/C[C@@H](C)[C@@H](O)[C@H]1C(=O)N[C@@H](CC)C(=O)N(C)CC(=O)N(C)[C@@H](CC(C)C)C(=O)N[C@@H](C(C)C)C(=O)N(C)[C@@H](CC(C)C)C(=O)N[C@@H](C)C(=O)N[C@H](C)C(=O)N(C)[C@@H](CC(C)C)C(=O)N(C)[C@@H](CC(C)C)C(=O)N(C)[C@@H](C(C)C)C(=O)N1C` gave a plasma Mg2+ of 0.86 ± 0.04 mmol/L (Wistar Kyoto rat, male, plasma; ip, 0.5 mg/kg/day, day 28, at sacrifice).
`CN1Cc2cc(Cl)ccc2-n2c(nnc2C2CCN(c3cccc([18F])n3)CC2)C1` gave a tissue uptake of 6.86 ± 1.86 %ID/g (C57BL/6 mouse male, lung; intravenous, 3.7 MBq, 5 min).
With `N=C(N)NCCC[C@@H](NC(=O)[C@H](N)Cc1c[nH]c2ccccc12)C(=O)N[C@H](CCCCN)C(=O)N[C@H](Cc1c[nH]c2ccccc12)C(=O)N[C@H](CCCNC(=N)N)C(=O)N[C@H](CCCCN)C(=O)N[C@H](Cc1c[nH]c2ccccc12)C(=O)N[C@H](CCCNC(=N)N)C(=O)N[C@H](CCCCN)C(=O)N[C@H](Cc1c[nH]c2ccccc12)C(=O)N[C@H](CCCNC(=N)N)C(=O)N[C@H](CCCCN)C(N)=O` the survival was 75% (mouse; intraperitoneal, 40 mg/kg single dose, day 7).
`O=C(NCc1ccc(Cl)cn1)C(=O)C(Cc1ccccc1)NC(=O)C1CC(F)CN1C(=O)C(NC(=O)C1CCC(F)(F)CC1)C1CCCCC1` (centres unmarked) has an oral bioavailability of 132% (dog).
For `CC(C)(c1cc(Br)c(O)c(Br)c1)c1cc(Br)c(O)c(Br)c1`, “final permeate concentration” read 6.54 nM (ultrafiltration; cow milk whey; 200 nM nominal in whole milk).
The health score of `N=C(N)NCCC[C@H](NC(=O)[C@H](CCCNC(=N)N)NC(=O)[C@H](CCCNC(=N)N)NC(=O)[C@H](CCC(N)=O)NC(=O)[C@H](CCCNC(=N)N)NC(=O)[C@H](CCCNC(=N)N)NC(=O)[C@H](CCCCN)NC(=O)[C@H](CCCCN)NC(=O)[C@H](CCCNC(=N)N)NC(=O)CNC(=O)[C@H](Cc1ccc(O)cc1)NC(=O)[C@H](Cc1ccccc1)NC(=O)[C@H](Cc1ccccc1)NC(=O)[C@H](Cc1ccccc1)NC(=O)Cc1ccc2ccccc2c1)C(=O)O` is reported as 5 (C57BL/6 mice; intraperitoneal, 20 mg/kg, 2 h; direction not given).
`CCc1nnc(-c2c(OC)cc(-c3cnc4cc(-c5cnn(C)c5)ccn34)cc2OC)o1` gave a fraction unbound of 0.017 (plasma protein binding; human plasma).
`CC[C@H](C)[C@@H]1NC(=O)[C@@H]2CCCN2C(=O)[C@H](CCSC)NC(=O)[C@H]([C@@H](C)O)NC(=O)[C@H](CCSC)NC(=O)[C@H](CC(=O)O)NC(=O)CNC(=O)[C@H](Cc2c[nH]cn2)NC(=O)[C@H](Cc2ccc(O)cc2)NC(=O)[C@@H](NC(=O)[C@H](Cc2c[nH]cn2)NC(=O)[C@@H](NC(=O)[C@H](CCC(N)=O)NC(=O)[C@@H](N)CO)C(C)C)CSSC[C@@H](C(=O)O)NC1=O` has a remaining compound of ~0.58% (mouse, serum; 3 h).
With `CC[C@H](C)[C@H](NC(=O)[C@H](CCCCN)NC(=O)CNC(=O)[C@H](CC(C)C)NC(=O)[C@H](Cc1ccccc1)NC(=O)[C@H](CCCCN)NC(=O)[C@H](CO)NC(=O)[C@H](Cc1ccccc1)NC(=O)[C@H](Cc1c[nH]c2ccccc12)NC(=O)[C@H](CCC(N)=O)NC(=O)[C@@H](NC(=O)[C@H](Cc1ccccc1)NC(=O)CCCCCNC(=O)CN1CCN(CC(=O)O)CCN(CC(=O)O)CCN(CC(=O)O)CC1)C(C)C)C(=O)N[C@@H](CCC(=O)O)C(=O)N1CCC[C@H]1C(=O)N[C@H](CC(=O)O)C(=O)N[C@H](C(=O)N[C@@H](CO)C(=O)N[C@@H](CCC(N)=O)C(=O)N[C@H](C(=O)N[C@@H](CCC(N)=O)C(=O)N[C@@H](CC(=O)O)C(=O)N1CCC[C@H]1C(=O)N[C@@H](CC(N)=O)C(=O)N[C@@H](CC(=O)O)C(=O)N[C@@H](CCC(N)=O)C(=O)N[C@@H](Cc1ccc(O)cc1)C(=O)N[C@@H](CCC(=O)O)C(=O)N1CCC[C@H]1C(=O)N[C@@H](Cc1ccccc1)C(=O)O)C(C)C)C(C)C` [copper-64 labelled] the tissue uptake was 0.36 ± 0.05 %ID/g (female mice, EMT6 tumour-bearing, muscle; 2 h, uncleavable control tracer, vehicle-treated).
`C=Cc1c(C)c2cc3nc(c(CC(=O)O)c4[nH]c(cc5nc(cc1[nH]2)C(C)=C5CC)c(C)c4C(=O)O)[C@@H](CCC(=O)NCCCC[C@H](NC(C)=O)C(=O)N[C@@H](Cc1ccccc1)C(=O)N[C@@H](Cc1ccccc1)C(=O)N[C@H](C(=O)N[C@@H](CC(C)C)C(=O)N[C@@H](CCCCN)C(=O)N[C@@H](CO)C(=O)NCC(=O)N[C@@H](CCC(N)=O)C(=O)N[C@@H](Cc1ccc(O)cc1)C(=O)N[C@@H](C)C(=O)N[C@@H](CO)C(=O)N[C@@H](Cc1ccc(O)cc1)C(=O)N[C@@H](Cc1c[nH]cn1)C(=O)N[C@@H](CS)C(=O)N[C@@H](Cc1c[nH]c2ccccc12)C(=O)N[C@@H](CS)C(=O)N[C@@H](Cc1c[nH]c2ccccc12)C(=O)N[C@@H](CCCNC(=N)N)C(=O)N[C@@H](CC(=O)O)C(=O)N1CCC[C@H]1C(=O)NCC(=O)N[C@@H](CCCNC(=N)N)C(=O)N[C@@H](CO)C(=O)NCC(=O)NCC(=O)N[C@@H](CO)C(=O)N[C@@H](CCCCN)C(N)=O)C(C)C)[C@@H]3C` has a blood concentration of 153 µg/mL (mouse, blood; 0.5 h).

Repeated from above:
For `CC(C)[C@@H]1NC(=O)CNC(=O)[C@H](CC(N)=O)NC(=O)[C@H](CCCNC(=N)N)NC(=O)[C@H](Cc2ccc(O)cc2)NC(=O)[C@H](C(C)C)NC(=O)[C@@H](NC(=O)[C@@H](NC(=O)[C@H](CC(N)=O)NC(=O)[C@H](Cc2c[nH]c3ccccc23)NC(=O)[C@H](C)NC(=O)[C@H](Cc2ccccc2)NC(=O)CNC(=O)[C@H](CCCCN)NC(=O)[C@H](Cc2ccccc2)NC(=O)[C@H](Cc2ccccc2)NC(=O)[C@H](CCCCN)NC(=O)OCC2c3ccccc3-c3ccccc32)C(C)C)CSSC[C@@H](C(=O)N[C@@H](Cc2c[nH]cn2)C(=O)N[C@@H](CCCNC(=N)N)C(=O)N[C@@H](CCCNC(=N)N)C(=O)N[C@@H](C)C(=O)N[C@@H](CC(N)=O)C(N)=O)NC(=O)[C@H](C(C)C)NC(=O)[C@H](CCCNC(=N)N)NC1=O`, the phosphorus was 3.28 ± 0.19 mmol/L (ICR mice, serum; intraductal mammary, 10 mg/kg, day 5).
